Measured values of several laboratories.
“And” joins repeats or separate records; there may be more than shown. ± gives the spread as reported.
PARP1: Poly [ADP-ribose] polymerase 1 (PARP1, Homo sapiens, UniProt P09874)
Chain of UniProt P08183 (whole entry, looked up): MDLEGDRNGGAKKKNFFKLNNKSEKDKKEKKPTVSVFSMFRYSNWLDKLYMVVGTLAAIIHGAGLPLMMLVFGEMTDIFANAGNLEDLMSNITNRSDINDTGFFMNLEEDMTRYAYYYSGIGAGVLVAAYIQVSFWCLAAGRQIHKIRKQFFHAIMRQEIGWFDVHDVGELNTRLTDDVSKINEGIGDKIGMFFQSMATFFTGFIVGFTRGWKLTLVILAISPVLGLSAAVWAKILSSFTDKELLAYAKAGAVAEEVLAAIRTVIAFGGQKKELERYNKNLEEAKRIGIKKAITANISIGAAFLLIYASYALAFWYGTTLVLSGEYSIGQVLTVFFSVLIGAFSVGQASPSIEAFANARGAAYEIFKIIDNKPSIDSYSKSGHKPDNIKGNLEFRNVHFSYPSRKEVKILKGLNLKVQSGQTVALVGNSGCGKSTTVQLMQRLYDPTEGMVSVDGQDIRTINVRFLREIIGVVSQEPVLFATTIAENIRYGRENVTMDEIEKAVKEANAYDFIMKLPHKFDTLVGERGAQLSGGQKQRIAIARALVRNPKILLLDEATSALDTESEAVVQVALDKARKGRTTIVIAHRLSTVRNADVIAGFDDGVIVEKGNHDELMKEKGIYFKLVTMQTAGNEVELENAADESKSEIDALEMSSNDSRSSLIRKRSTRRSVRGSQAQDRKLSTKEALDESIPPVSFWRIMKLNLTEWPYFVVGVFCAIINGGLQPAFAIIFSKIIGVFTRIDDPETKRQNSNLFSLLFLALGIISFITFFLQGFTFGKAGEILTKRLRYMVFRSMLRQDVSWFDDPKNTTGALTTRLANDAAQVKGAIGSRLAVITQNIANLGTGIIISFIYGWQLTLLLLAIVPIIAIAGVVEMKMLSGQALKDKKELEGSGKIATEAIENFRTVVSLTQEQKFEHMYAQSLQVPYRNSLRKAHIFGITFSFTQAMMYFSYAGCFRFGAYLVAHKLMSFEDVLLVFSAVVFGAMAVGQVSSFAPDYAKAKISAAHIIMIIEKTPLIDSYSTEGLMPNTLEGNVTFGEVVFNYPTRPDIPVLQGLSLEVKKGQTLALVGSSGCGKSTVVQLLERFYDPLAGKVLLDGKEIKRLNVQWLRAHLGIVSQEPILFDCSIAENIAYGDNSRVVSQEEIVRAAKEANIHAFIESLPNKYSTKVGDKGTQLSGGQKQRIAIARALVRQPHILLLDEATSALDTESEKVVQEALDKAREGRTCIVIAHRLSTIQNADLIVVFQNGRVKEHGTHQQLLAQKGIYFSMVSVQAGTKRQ
Chain of UniProt P09874 (whole entry, looked up): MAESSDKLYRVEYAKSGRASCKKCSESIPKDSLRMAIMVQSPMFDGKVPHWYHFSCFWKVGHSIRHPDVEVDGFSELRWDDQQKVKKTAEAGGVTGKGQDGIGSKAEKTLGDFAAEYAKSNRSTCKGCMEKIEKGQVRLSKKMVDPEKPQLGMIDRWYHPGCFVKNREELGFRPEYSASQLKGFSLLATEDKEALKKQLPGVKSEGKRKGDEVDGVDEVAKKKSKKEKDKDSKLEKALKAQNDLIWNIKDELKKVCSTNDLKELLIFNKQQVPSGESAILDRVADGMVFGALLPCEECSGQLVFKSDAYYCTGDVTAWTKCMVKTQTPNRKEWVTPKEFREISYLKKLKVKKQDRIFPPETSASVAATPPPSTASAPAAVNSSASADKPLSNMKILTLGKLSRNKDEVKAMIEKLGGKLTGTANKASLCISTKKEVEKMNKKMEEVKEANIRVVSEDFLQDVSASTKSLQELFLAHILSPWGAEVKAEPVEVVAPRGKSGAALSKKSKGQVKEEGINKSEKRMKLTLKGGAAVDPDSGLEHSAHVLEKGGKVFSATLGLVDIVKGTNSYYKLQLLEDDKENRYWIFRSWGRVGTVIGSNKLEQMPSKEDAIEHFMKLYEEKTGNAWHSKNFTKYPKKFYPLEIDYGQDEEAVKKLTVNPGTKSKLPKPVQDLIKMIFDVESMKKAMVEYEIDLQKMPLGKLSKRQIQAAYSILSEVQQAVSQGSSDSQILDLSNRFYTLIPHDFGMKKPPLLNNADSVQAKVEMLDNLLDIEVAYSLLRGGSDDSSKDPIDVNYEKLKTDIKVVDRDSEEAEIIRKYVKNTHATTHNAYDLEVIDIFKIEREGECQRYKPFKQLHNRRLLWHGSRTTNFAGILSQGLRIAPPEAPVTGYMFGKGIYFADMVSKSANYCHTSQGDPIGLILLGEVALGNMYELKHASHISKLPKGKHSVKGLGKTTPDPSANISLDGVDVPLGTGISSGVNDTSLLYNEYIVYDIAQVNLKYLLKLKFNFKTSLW
Chain of UniProt P06756 (whole entry, looked up): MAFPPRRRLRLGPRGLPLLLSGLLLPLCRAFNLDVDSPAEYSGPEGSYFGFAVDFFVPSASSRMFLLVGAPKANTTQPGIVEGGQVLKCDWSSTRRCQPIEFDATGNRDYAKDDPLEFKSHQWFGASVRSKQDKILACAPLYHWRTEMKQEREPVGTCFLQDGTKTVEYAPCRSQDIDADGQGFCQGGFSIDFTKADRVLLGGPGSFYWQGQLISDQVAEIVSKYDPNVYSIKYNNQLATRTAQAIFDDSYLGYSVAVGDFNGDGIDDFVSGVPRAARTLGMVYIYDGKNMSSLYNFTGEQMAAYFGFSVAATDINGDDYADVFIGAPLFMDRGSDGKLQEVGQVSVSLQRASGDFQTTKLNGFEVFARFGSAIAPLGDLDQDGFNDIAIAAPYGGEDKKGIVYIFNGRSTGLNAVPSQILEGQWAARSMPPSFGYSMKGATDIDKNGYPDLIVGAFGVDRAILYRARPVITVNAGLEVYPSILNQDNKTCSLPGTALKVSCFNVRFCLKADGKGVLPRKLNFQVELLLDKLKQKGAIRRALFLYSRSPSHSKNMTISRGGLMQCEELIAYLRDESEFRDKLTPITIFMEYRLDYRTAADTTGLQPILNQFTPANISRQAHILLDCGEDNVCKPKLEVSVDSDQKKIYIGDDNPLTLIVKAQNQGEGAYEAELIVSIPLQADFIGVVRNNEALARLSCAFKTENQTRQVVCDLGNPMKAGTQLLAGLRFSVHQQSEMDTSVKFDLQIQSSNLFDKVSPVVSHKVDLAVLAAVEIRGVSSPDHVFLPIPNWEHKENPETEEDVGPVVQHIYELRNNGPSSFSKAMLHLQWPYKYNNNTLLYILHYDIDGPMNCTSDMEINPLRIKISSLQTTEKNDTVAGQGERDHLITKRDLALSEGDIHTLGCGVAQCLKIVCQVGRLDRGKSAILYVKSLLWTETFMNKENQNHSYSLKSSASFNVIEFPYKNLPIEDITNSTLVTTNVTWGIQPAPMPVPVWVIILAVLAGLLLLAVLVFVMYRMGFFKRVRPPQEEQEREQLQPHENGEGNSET
Chain of UniProt P18084 (whole entry, looked up): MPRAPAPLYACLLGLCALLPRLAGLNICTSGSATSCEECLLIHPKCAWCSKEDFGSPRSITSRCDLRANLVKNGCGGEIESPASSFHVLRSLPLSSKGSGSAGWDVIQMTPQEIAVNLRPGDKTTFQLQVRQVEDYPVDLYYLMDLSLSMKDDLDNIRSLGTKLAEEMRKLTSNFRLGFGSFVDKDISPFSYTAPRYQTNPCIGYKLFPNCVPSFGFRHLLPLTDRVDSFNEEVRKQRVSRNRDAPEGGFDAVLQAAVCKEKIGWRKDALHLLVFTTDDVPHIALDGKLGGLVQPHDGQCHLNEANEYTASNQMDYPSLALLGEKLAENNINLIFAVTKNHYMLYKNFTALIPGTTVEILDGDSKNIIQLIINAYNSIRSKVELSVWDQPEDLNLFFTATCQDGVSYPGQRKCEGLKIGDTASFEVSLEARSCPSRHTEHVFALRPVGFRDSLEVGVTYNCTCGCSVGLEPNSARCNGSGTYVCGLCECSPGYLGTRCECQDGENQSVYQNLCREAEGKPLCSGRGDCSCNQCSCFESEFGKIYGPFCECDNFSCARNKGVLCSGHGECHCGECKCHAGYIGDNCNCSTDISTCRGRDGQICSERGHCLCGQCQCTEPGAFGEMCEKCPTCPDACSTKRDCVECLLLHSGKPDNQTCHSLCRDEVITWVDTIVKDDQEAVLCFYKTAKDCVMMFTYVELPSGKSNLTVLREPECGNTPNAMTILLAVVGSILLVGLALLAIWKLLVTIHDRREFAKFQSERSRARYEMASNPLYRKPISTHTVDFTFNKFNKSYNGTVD
Chain of UniProt O15379 (whole entry, looked up): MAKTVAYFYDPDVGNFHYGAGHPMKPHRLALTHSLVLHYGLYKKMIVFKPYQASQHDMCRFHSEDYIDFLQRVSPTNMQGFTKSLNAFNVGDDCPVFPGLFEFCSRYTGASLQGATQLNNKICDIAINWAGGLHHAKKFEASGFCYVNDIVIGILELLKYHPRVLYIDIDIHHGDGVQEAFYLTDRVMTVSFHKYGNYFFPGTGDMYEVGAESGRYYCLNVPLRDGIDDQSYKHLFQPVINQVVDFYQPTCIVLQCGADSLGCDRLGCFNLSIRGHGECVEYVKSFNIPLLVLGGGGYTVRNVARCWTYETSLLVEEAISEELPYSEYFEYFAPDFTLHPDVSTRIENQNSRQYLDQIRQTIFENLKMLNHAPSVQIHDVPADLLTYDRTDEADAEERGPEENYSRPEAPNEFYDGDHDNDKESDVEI
Chain of UniProt P9WFX1 (whole entry, looked up): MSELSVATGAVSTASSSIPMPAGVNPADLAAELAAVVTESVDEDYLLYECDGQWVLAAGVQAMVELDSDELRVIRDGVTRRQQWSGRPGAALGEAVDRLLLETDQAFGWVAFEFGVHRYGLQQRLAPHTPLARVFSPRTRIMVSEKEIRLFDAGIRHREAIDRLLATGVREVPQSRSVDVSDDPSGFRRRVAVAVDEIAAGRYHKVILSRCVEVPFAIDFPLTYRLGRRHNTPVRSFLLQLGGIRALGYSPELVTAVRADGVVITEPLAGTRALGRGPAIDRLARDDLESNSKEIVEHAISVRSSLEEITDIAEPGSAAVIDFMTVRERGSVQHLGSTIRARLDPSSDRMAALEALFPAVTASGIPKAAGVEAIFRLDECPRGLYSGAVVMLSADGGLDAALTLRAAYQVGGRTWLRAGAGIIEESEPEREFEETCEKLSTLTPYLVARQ

COc1ccc([C@H](CC(=O)O)N2CCN(CCCc3ccc4c(n3)NCCC4)C2=O)cn1
IC50 (Integrin alpha-V/beta-5 (Homo sapiens, UniProt P06756+P18084); vitronectin binding, inhibitor, ELISA): 0.0001 ± 0.0001 µM

COc1ccc(-c2cc(-c3ccc(NC(=O)CSc4nc5ccccc5c(=O)n4-c4ccccc4)cc3)nc(N)c2C#N)cc1
IC50 (PARP1; enzyme activity): 0.0333 µM

COc1cc2ncnc(Nc3ccc(F)c(Cl)c3)c2cc1NC(=O)/C=C/CN1CCCCC1
IC50 (Cytochrome P450 2D6 (CYP2D6, Homo sapiens, UniProt P10635); poziotinib M2 formation, inhibitor; 50 min, pH 7.4): 0.11 µM

O=C1Nc2ccc(Cl)cc2[C@@](C#CC2CC2)(C(F)(F)F)O1
IC50 (ATP-dependent translocase ABCB1 (ABCB1, Homo sapiens, UniProt P08183); transporter efflux, inhibitor, fluorescence; MDCK-II): 123 µM and ~123 µM

CN(C)c1ccc(C(=C2C=CC(=[N+](C)C)C=C2)c2ccc(N(C)C)cc2)cc1
IC50 (Cell division cycle 7-related protein kinase, with DBF4 (CDC7, Homo sapiens, UniProt O00311); enzyme activity, inhibitor, ADP-Glo luminescence; together with: ATP 12.5 µM): 12.8 ± 2.57 µM

COc1ccc(-c2cc(=O)c3c(OC)c([C@@H]4O[C@H](C(=O)N[C@H](C)C(F)(F)F)[C@@H](O)[C@H](O)[C@H]4O)c(OC)cc3o2)cc1OC
IC50 (Glycogen synthase kinase-3 beta (GSK3B, Homo sapiens, UniProt P49841); enzyme activity, inhibitor, ADP detection): 2.3 µM

CN1CCN(C2=Nc3ccccc3Oc3ccc(Cl)cc32)CC1
IC50 (Multidrug resistance-associated protein 1 (ABCC1, Homo sapiens, UniProt P33527); efflux, inhibitor; SupT1-Vin overexpressing ABCC1; together with: BODIPY FL verapamil 100 nM): 10.1 ± 4.4 µM

C1=C/COCc2cc(ccc2OCCN2CCCC2)Nc2nccc(n2)-c2cccc(c2)COC/1
IC50 (Equilibrative nucleoside transporter 1 (SLC29A1, Homo sapiens, UniProt Q99808); transporter uptake, inhibitor, radiometric): 3.7 µM

O=C(Nc1ccc(Sc2ccc(N=Nc3c(O)c(S(=O)(=O)O)cc4cc(S(=O)(=O)O)ccc34)cc2)cc1)c1ccc(N=Nc2c(O)ccc3c(S(=O)(=O)O)cc(S(=O)(=O)O)cc23)cc1
IC50 (DNA topoisomerase 1 (topA, Escherichia coli, UniProt P06612); enzyme activity, inhibitor): ~2.2 µM

Cc1nc2ccccc2n1Cc1ccc(C(=O)NO)cc1
IC50 (Histone deacetylase 3 (HDAC3, Homo sapiens, UniProt O15379); concentration not given): 10.9 µM

O=C(O)c1cc(Br)c2ccc(Br)cc2c1
IC50 (Glutamate NMDA receptor; Grin1/Grin2a (Grin1/Grin2a, Rattus norvegicus, UniProt P35439+Q00959); ion current, two-electrode voltage clamp; oocytes): 19.3 µM

O=C(CS)NCCCCCC(=O)Nc1ccccc1
IC50 (Histone deacetylase 8 (HDAC8, Homo sapiens, UniProt Q9BY41); enzyme activity, inhibitor): 14.1 µM

C#Cc1cc2oc(=O)ccc2cc1OC
IC50 (Cytochrome P450 1A2 (CYP1A2, Homo sapiens, UniProt P05177); enzyme activity, inhibitor; 6 min, pH 7.6): 48.3 µM

Cn1c(=O)c(=O)n(C)c2cc(S(=O)(=O)Nc3ccccc3S)ccc21
IC50 (Dipeptidyl peptidase 4 (DPP4, Homo sapiens, UniProt P27487); enzyme activity, inhibitor, fluorescence): 0.00067 µM

NC(=O)c1cc([N+](=O)[O-])cc2c1OCCO2
IC50 (PARP1): > 5 µM

CCOc1ccc2cc(-c3nn(CC4CCN(C)CC4)c4ncnc(N)c34)ccc2c1
IC50 (CDPK1 (Sarcocystis neurona); kinase activity, inhibitor, Kinase-Glo; 90 min, 30 °C, together with: 10 µM ATP): 0.006 µM

NC(C(=O)O)[C@@H]1CCN[C@H]1C(=O)O (relative stereo)
IC50 (AMPA receptor, rat; binding; cortical synaptosomes; together with: [3H]-AMPA): 31 µM

c1nc2c(NCCc3ccc(CNCCCNC4CCCCC4)cc3)nc(N3CCNCC3)nc2[nH]1
IC50 (C-X-C chemokine receptor type 4 (CXCR4, Homo sapiens, UniProt P61073); ligand displacement, radioligand; cell membranes): 0.0451 µM

CCOC(=O)CC1C(C(=O)OCC)=C(N)Oc2ccc(-c3cc(OC)cc(OC)c3)cc21 (single isomer, unassigned; (+))
IC50 (Sarcoplasmic/endoplasmic reticulum calcium ATPase 1 (ATP2A1, Oryctolagus cuniculus, UniProt P04191); ATPase activity, inhibitor, absorbance): 68 µM

CC(=O)N1C(=O)Cc2ccccc21
IC50 (mbtI (Mycobacterium tuberculosis, UniProt P9WFX1); enzyme activity, inhibitor, continuous fluorescence; together with: chorismate): > 200 µM

Repeated from above:
Cn1c(=O)c(=O)n(C)c2cc(S(=O)(=O)Nc3ccccc3S)ccc21
IC50 (Dipeptidyl peptidase 4 (DPP4, Homo sapiens, UniProt P27487); enzyme activity, inhibitor, fluorescence): 0.00067 µM

NC(=O)c1cc([N+](=O)[O-])cc2c1OCCO2
IC50 (PARP1): > 5 µM
